# Measurements from different studies.
# Lines come from different studies, so protocols differ. ± gives the spread as reported.
Compound,test,system,setting,how to read,quantity,result
O=c1c(-c2cccnc2)c[nH]n1-c1ccc(CO)cn1,,"mouse, plasma","oral, 100 mg/kg, 4 h",,plasma EPO,~2000 pg/mL
O=C1NC(=O)C(C2CCOc3cc(Oc4ccc(C(F)(F)F)cc4Cl)ccc32)S1 (stereo not drawn),measured: total GLP-1,"mouse, overnight fasted, plasma","oral, 30 mg/kg, 30 min",,plasma GLP-1 level,12 pmol/L
CSCC[C@H](NC(=O)[C@H](CO)NC(=O)[C@@H](N)CO)C(=O)N[C@@H](CCCCN)C(=O)N[C@@H](CC(C)C)C(=O)N[C@@H](CO)C(=O)N[C@@H](Cc1ccccc1)C(=O)N[C@@H](CCCNC(=N)N)C(=O)N[C@@H](C)C(=O)N[C@@H](CCCNC(=N)N)C(=O)N[C@@H](C)C(=O)N[C@@H](Cc1ccc(O)cc1)C(=O)NCC(=O)N[C@@H](Cc1ccccc1)C(=O)N[C@@H](CCCNC(=N)N)C(=O)NCC(=O)N1CCC[C@H]1C(=O)NCC(=O)N1CCC[C@H]1C(=O)N[C@@H](CCC(N)=O)C(=O)N[C@@H](CC(C)C)C(=O)O,measured: noradrenaline and adrenaline,"fed and fasted knockout mouse (endogenous peptide), plasma","dose not given, chronic treatment",,plasma catecholamine level,decreased
C[C@H](CC(=O)C[C@@H](C)[C@H]1C[C@H](O)[C@@]2(C)C3=C(C(=O)C[C@]12C)[C@@]1(C)CCC(=O)C(C)(C)[C@@H]1C[C@@H]3O)C(=O)O,,"mouse, STZ-induced type 1 diabetes, plasma",dose not given,,plasma insulin,51.6 ± 5.32 mU/mL
N#Cc1c(Nc2ccccc2C(F)(F)F)s[nH]c1=O,,"mouse, sciatic nerve axotomy, plasma","intraperitoneal, 15 mg/kg, two doses, 15 h",reference: vehicle,plasma NfL decrease,-30%
CCCc1nc2cc(C(=O)N3CCC4(CC3)CC(=O)c3cc5c(cc3O4)OC(C)(C)CC5)cc(C)c2[nH]1,"measured: LDL-c, HDL-c","C57BL/6J male mouse, HFD-induced obesity, plasma",dose not given,,plasma cholesterol,decreased
Cc1cccc(O[C@H]2CCC[C@@H](C(C)CNCc3ccncc3)C2)c1 (relative stereo),,APP/PS1 mouse,"dose not given, chronic treatment",,plasma IL-1β level,decreased
CC(C)(CCCC/C=C/CCCCCC(C)(C)C(=O)O)C(=O)O,,"ApoE-/- mouse, Western diet","dose not given, 24 weeks, multiple doses",,plasma hsCRP reduction,> 50%
Cc1cc(N)c2cc(NC(=O)C(=O)Nc3ccc4nc(C)cc(N)c4c3)ccc2n1,heparin neutralization,mouse,"intravenous, 6 mg/kg, 5 min, with: UFH 1200 IU/kg s.c.",,plasma UFH concentration,0.08 ± 0.001 IU/mL

# Repeated from above:
Compound,test,system,setting,how to read,quantity,result
O=C1NC(=O)C(C2CCOc3cc(Oc4ccc(C(F)(F)F)cc4Cl)ccc32)S1 (stereo not drawn),measured: total GLP-1,"mouse, overnight fasted, plasma","oral, 30 mg/kg, 30 min",,plasma GLP-1 level,12 pmol/L
